Results gathered from unrelated publications.
Protocols differ between the studies behind these lines. Values joined by “and” are separate records of one study, mostly repeats; a detail may differ. ± gives the spread as reported. In brackets after ≈: the same amount, converted by molar mass.

Structure (SMILES) | organism | assay | test system | conditions | how to read | endpoint | value
CC(O)CNCC(C)O.O=C(O)C(Cl)Cl (stereo not drawn) | Xanthium sibiricum |  |  | 15 mg/mL, 21 days, post-emergence, greenhouse |  | herbicidal inhibition | 0%
CC1(C)[C@H](NC(=O)/C(=N\OCCN)c2nsc(N)n2)C(=O)N1OS(=O)(=O)O | Citrobacter freundii | agar dilution | ATCC 43864, susceptible |  |  | MIC | 8 µg/mL (≈ 18.9 µM)
c1ccc(CN2CCOCCOCCN(CCCCCCCCCCCCN3CCOCCOCCN(CCCCCCCCCCCCN4CCOCCOCCN(Cc5ccccc5)CCOCCOCC4)CCOCCOCC3)CCOCCOCC2)cc1 | Klebsiella pneumoniae | tetracycline MIC, checkerboard | ATCC BAA-2146 | quarter MIC, together with: tetracycline | reference: MIC alone over combination | fold enhancement | 3 fold
CC1(C)C(NC(=O)C(=NOC2(C(=O)O)CCC2)c2csc(N)n2)C(=O)N1OS(=O)(=O)O (stereo not drawn) | Providencia rettgeri | agar dilution | ATCC 31052, susceptible |  |  | MIC | ≤ 0.03 µg/mL
Fc1ccc2c(c1)c1nc3ccc(Br)cc3c-1cn2Cc1cn(-c2ccccc2I)nn1 | Giardia duodenalis | UHPLC-Q-TOF-MS metabolomics, item: PE(P-19:1(12Z)/0:0) | trophozoites | IC50 concentration, 0.1413 h, RT 8.48 min, m/z 478.3 | reference: 0.25% DMSO vehicle | fold change | 2.98
Cc1cccc2c1N(C(=O)n1ccnn1)CC2 | Arabidopsis thaliana |  | wild type, seeds | 3 µM, high ambient temperature |  | germination rate | 80.6% and 73.8% and 0% and 3.7% and 78.1% and 75.7%
COC1C=COC2(C)Oc3c(C)c(O)c4c(c3C2=O)C2=NC3(CCN(CC(C)C)CC3)NC2=C(NC(=O)C(C)=CC=CC(C)C(O)C(C)C(O)C(C)C(OC(=O)Nc2cnccn2)C1C)C4=O (stereo not drawn) | Mycobacteroides abscessus |  | ATCC 19977, caseum surrogate | 5 d, non-replicating |  | MBC | 1.3 µM (≈ 1.2 µg/mL)
O=C(Nc1cccc(CNc2ncccn2)c1)c1cc(-c2ccccc2)n(-c2ccccc2)n1 | Dengue virus | viral replication, inhibitor, imaging | Vero, DENV2 | 12.5 µM |  | inhibition | < 50%
O=C1Nc2ccccc2C1(c1c[nH]c2ccccc12)c1c[nH]c2ccccc12 | Clostridioides difficile | microbial growth, absorbance |  |  |  | IC50 | > 50000 nM
CC(C)(C)NCC(SS(=O)(=O)O)c1ccccc1 (stereo not drawn) | Schistosoma mansoni |  | mice | 100 mg/kg x2 from day 42, perfusion day 56 |  | female worms recovered | 3 worms per mouse and 1 worms per mouse
Cc1[nH]c2ccccc2c1CC(=O)N[C@@H](Cc1ccccc1)C(=O)N(C)c1ccccc1 | human immunodeficiency virus 1 | viral replication | NL4-3 with subtype AG gag/pol |  |  | EC50 | 840 ± 100 nM
C=C[C@]1(C)C[C@@H](OC(=O)CSc2ccc(NC(=O)c3ccco3)cc2)[C@]2(C)[C@H](C)CC[C@]3(CCC(=O)[C@H]32)[C@@H](C)[C@@H]1O | Mycoplasma gallisepticum |  | infected chickens, lung | intramuscular, 10 mg/kg daily x3, 72 h |  | lung mycoplasma count | 5.44 log10 CFU/mL and 4.97 log10 CFU/mL and 4.57 log10 CFU/mL and 4.98 log10 CFU/mL and 4.96 log10 CFU/mL and 4.48 log10 CFU/mL and 4.35 log10 CFU/mL and 5.07 log10 CFU/mL
N=C(N)NCCC[C@@H]1NC(=O)[C@H](CCCNC(=N)N)NC(=O)[C@@H](C(c2ccccc2)c2ccccc2)NC(=O)[C@H](Cc2c[nH]c3ccccc23)NC(=O)[C@@H](C(c2ccccc2)c2ccccc2)NC(=O)[C@@H](CCCNC(=N)N)NC(=O)[C@@H](CCCNC(=N)N)NC1=O | Candida albicans |  | ATCC 60193 | 4 x MIC, 12 h |  | reduction of viable cells | > 95%
Cc1cc(N2CC[C@@](C#N)(C3(C)CC3)C2=O)cc(C(=O)NCc2cc(F)cc(-c3cnn(C)c3)c2)n1 | Plasmodium vivax | ex vivo drug susceptibility | clinical field isolates |  |  | IC50 | 7 to 25 nM
CC(C)[C@H](NC(=O)OCc1ccccc1)C(=O)N(C)[C@@H](Cc1ccc(OC(C)(C)C)cc1)C(=O)Nc1ccccc1C(=O)N[C@@H](C)C(=O)O | Candida albicans | potentiator, broth microdilution | ATCC 90029 | 2.0 µg/mL, together with: amphotericin B | reference: amphotericin B alone | fold potentiation | 4
CC1(C)C(NC(=O)C(=NOCC(=O)N2CC3CCCC3C2C(=O)O)c2csc(N)n2)C(=O)N1OS(=O)(=O)O (stereo not drawn) | Citrobacter freundii | agar dilution | ATCC 43864, susceptible |  |  | MIC | 1 µg/mL (≈ 1.74 µM)
CCCCCCCCCC(=O)N[C@@H](Cc1c[nH]c2ccccc12)C(=O)N[C@H](CC(N)=O)C(=O)N[C@@H](CC(=O)O)C(=O)N[C@@H]1C(=O)NCC(=O)N[C@@H](CCCNC(=O)OC2/C=C/CCCCC2)C(=O)N[C@@H](CC(=O)O)C(=O)N[C@H](C)C(=O)N[C@@H](CC(=O)O)C(=O)NCC(=O)N[C@H](CO)C(=O)N[C@@H]([C@H](C)CC(=O)O)C(=O)N[C@@H](CC(=O)c2ccccc2N)C(=O)O[C@@H]1C (stereo partly drawn) | Staphylococcus aureus | planktonic bacterial growth, isothermal microcalorimetry | MRSA | 1.0 µg/mL, 24 h, 37 °C |  | peak heat flow | 0 µW
CC(C)=CCC/C(C)=C/CC/C(C)=C/Cc1c(O)cc(CO)c(C=O)c1O | Stachybotrys chartarum |  |  | 30 min, pH 7.0, 25 °C |  | kcat | 0.158 s⁻¹
CN(Cc1ccc(C2(C(F)(F)F)CCC2)cc1)Cc1cccc2ccccc12 | Trichophyton mentagrophytes | microbial growth, disc diffusion | ATCC18748 | 0.256 µg/mL, 72 h |  | inhibition zone | 39.5 mm
FC(F)(F)c1cccc(CNc2nc(NC3CCN(Cc4ccccc4)CC3)c3nc[nH]c3n2)c1 | Cryptococcus neoformans | RNA-seq, item: CNAG_06530 | wild type | 48 µg/mL, 3 h | reference: untreated wild type | log2 fold change | -0.079
C=C(NC(=O)c1csc(-c2nc3c(cc2O)-c2nc(cs2)C(=O)NC(C(C)O)C(=O)NC(=C(C)OC)c2nc(cs2)C(=O)NC2c4nc(cs4)C(=O)NC(COC(=O)c4c5c6c(cccc6n4O)COC(=O)C(OC4CC(C)(O)C(N(C)C)C(C)O4)C2OC5)c2nc-3cs2)n1)C(N)=O (stereo not drawn) | Staphylococcus aureus |  | MRSA, 10 isolates | pH 8.5 |  | MIC50 | 0.0312 µg/mL (≈ 0.0217 µM)

A few entries again:
Structure (SMILES) | organism | assay | test system | conditions | how to read | endpoint | value
Fc1ccc2c(c1)c1nc3ccc(Br)cc3c-1cn2Cc1cn(-c2ccccc2I)nn1 | Giardia duodenalis | UHPLC-Q-TOF-MS metabolomics, item: PE(P-19:1(12Z)/0:0) | trophozoites | IC50 concentration, 0.1413 h, RT 8.48 min, m/z 478.3 | reference: 0.25% DMSO vehicle | fold change | 2.98
